Measurements from different studies.
Parts stem from different laboratories: compare values within a part only.
Sequence of UniProt Q8TD19 (whole entry, looked up): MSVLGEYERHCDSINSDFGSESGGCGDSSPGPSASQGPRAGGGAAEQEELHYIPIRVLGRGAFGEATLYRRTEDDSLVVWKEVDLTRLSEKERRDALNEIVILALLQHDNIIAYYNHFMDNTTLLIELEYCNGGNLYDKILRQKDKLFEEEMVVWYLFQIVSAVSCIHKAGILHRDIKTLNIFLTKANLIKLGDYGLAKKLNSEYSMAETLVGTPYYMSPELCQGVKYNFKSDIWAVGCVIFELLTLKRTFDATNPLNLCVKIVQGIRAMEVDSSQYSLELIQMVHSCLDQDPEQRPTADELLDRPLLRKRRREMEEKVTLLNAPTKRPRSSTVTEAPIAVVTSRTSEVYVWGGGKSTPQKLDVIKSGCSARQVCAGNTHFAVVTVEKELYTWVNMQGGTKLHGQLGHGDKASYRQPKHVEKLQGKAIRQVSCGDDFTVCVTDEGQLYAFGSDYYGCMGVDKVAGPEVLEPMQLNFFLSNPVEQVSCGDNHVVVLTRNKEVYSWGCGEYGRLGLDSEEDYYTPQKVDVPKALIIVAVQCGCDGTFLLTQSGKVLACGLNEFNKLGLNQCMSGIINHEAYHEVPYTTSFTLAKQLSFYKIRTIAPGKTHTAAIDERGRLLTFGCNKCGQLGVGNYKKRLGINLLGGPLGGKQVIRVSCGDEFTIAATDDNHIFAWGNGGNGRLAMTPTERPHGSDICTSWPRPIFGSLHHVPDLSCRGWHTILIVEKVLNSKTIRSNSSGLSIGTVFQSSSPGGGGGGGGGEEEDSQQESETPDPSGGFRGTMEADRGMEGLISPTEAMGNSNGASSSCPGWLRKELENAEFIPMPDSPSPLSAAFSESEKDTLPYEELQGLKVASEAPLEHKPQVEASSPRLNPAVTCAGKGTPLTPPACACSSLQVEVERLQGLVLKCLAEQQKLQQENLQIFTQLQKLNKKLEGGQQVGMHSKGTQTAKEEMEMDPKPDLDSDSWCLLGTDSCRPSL
Sequence of UniProt P35968 (whole entry, looked up): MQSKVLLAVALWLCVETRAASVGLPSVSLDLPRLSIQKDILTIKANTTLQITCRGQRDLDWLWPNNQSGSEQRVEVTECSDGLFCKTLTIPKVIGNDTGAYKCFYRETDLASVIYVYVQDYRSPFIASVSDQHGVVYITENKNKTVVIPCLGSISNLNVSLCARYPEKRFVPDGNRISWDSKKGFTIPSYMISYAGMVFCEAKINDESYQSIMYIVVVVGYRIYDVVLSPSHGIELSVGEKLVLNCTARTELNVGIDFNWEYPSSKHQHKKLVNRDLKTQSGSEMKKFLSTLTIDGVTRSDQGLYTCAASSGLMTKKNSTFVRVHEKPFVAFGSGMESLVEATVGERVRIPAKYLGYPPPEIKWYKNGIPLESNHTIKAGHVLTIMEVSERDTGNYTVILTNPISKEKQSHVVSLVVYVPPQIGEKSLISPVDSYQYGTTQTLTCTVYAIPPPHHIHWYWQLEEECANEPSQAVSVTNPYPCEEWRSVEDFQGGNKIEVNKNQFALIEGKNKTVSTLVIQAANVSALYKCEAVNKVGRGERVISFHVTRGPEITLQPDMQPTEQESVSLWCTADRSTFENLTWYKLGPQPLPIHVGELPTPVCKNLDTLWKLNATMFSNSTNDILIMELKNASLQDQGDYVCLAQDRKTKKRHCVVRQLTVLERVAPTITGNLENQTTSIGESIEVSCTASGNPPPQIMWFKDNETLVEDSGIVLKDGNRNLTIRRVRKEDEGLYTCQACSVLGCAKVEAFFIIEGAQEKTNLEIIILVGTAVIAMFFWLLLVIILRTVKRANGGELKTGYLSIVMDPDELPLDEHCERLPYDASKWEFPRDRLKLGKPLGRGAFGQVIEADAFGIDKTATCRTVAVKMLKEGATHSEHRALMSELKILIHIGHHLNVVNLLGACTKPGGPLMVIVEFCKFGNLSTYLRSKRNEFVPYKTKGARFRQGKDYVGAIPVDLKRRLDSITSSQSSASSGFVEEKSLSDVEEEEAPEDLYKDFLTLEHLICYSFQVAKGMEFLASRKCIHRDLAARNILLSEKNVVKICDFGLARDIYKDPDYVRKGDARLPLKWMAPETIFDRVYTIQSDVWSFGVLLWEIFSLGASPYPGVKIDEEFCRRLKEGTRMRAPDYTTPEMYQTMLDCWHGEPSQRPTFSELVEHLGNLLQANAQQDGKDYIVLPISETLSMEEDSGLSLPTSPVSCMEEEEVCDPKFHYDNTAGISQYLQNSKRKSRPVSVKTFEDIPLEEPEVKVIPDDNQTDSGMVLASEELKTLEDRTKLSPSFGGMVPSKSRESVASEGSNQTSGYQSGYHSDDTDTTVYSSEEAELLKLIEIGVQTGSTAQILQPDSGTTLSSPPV
Sequence of UniProt P11802 (whole entry, looked up): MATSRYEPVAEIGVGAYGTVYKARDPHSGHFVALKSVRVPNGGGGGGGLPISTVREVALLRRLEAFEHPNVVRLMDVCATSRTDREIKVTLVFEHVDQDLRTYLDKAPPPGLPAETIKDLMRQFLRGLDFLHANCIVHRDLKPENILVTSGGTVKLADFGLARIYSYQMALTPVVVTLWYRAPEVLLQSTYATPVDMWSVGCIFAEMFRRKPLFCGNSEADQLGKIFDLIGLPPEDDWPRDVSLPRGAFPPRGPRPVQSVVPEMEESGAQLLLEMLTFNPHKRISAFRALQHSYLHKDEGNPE
Sequence of UniProt Q9H2G2 (whole entry, looked up): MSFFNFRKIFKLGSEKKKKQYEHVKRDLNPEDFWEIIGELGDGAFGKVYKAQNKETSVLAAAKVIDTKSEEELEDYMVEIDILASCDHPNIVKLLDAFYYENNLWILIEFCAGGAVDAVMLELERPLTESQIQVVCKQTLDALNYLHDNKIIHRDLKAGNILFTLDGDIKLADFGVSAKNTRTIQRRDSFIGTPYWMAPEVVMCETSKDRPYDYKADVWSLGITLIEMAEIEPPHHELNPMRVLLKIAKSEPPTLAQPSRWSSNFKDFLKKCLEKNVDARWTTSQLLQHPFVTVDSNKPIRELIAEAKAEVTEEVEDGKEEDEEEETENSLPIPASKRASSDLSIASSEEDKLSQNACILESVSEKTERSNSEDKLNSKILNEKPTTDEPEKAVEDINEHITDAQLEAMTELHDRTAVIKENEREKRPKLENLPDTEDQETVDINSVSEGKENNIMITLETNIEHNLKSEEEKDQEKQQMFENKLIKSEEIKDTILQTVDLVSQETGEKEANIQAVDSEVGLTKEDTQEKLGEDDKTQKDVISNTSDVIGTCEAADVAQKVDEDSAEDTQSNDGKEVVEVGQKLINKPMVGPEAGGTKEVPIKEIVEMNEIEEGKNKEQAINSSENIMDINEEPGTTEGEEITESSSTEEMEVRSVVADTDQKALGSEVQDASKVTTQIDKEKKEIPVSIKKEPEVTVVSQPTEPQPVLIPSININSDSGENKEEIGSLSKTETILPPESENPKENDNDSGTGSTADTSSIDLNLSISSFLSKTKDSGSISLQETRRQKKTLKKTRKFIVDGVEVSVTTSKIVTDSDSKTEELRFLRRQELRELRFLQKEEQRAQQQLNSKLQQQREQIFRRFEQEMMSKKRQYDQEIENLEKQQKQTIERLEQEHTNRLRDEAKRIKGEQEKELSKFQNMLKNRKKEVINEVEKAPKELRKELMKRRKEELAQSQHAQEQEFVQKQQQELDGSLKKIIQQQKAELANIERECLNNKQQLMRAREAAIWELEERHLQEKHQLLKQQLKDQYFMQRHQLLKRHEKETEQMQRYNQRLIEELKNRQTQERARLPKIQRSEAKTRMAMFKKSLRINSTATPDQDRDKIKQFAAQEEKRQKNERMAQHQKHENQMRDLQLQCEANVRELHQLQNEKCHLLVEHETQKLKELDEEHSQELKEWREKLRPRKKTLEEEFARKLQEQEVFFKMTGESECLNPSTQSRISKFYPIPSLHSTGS
Sequence of UniProt Q9UK32 (whole entry, looked up): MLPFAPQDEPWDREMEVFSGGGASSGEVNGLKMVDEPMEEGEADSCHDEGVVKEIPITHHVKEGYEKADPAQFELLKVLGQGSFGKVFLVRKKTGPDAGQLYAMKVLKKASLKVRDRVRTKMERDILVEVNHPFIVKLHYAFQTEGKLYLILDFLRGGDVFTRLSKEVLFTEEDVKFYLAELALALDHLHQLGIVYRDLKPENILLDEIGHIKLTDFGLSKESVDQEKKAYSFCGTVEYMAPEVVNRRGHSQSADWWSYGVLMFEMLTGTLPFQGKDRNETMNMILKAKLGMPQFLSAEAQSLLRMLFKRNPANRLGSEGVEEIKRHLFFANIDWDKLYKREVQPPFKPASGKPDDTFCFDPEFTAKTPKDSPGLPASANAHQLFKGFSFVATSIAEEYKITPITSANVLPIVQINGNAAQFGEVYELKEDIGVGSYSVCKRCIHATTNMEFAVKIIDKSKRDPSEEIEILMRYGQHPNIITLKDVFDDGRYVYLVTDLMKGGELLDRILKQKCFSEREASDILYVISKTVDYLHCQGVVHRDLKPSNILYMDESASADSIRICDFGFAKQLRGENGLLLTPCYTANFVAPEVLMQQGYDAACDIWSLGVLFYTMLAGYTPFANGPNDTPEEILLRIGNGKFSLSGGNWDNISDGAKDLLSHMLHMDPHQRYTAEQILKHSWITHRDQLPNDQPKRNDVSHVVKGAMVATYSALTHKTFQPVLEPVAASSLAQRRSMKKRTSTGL

Set 1 — read-out: enzyme activity; mode: inhibitor; tested at: 10 µM; endpoint: inhibition
Target: Calcium/calmodulin-dependent protein kinase type II subunit alpha (CAMK2A, Homo sapiens, UniProt Q9UQM7)
Sequence of UniProt Q9UQM7 (whole entry, looked up): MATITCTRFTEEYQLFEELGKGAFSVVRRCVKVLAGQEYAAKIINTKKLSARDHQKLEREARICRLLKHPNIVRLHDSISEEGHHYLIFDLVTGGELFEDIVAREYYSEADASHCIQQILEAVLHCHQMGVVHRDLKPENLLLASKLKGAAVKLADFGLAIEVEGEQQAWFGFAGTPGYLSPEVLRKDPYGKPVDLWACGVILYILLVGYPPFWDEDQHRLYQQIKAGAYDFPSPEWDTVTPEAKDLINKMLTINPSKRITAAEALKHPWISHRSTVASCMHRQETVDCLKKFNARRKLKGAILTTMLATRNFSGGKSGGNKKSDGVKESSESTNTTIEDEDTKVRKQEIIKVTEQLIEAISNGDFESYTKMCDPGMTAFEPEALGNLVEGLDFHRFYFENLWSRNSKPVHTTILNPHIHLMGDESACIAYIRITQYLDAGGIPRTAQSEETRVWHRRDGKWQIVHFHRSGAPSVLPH
Structure (SMILES) = COC(=O)C1=CO[C@@H](O[C@@H]2O[C@H](CO)[C@@H](O)[C@H](O)[C@H]2O)[C@@H]2[C@@H](C)[C@@H](O)C[C@H]12; value = -18%
Structure (SMILES) = O=C(NC1CCN(CCCCC2(C(=O)NCC(F)(F)F)c3ccccc3-c3ccccc32)CC1)c1ccccc1-c1ccc(C(F)(F)F)cc1; value = -17%
Structure (SMILES) = C[C@@H]1O[C@@H](O[C@H]2[C@H](O[C@H]3CC[C@@]4(C)[C@@H](CC[C@]5(C)[C@@H]4CC=C4[C@@H]6CC(C)(C)CC[C@]6(C(=O)O[C@@H]6O[C@H](CO[C@@H]7O[C@H](CO)[C@@H](O[C@@H]8O[C@@H](C)[C@H](O)[C@@H](O)[C@H]8O)[C@H](O)[C@H]7O)[C@@H](O)[C@H](O)[C@H]6O)CC[C@]45C)[C@]3(C)CO)OC[C@H](O)[C@@H]2O)[C@H](O)[C@H](O)[C@H]1O; value = 12%
Structure (SMILES) = C[C@@H]1O[C@@H](Oc2c(-c3ccc(O)cc3)oc3cc(O[C@@H]4O[C@@H](C)[C@H](O)[C@@H](O)[C@H]4O[C@@H]4O[C@H](CO)[C@@H](O)[C@H](O)[C@H]4O)cc(O)c3c2=O)[C@H](O)[C@H](O)[C@H]1O; value = -29%
Structure (SMILES) = CCOc1ccc2ccccc2c1C(=O)N[C@@H]1C(=O)N2[C@@H]1SC(C)(C)[C@@H]2C(=O)O; value = 1%
Structure (SMILES) = CO[C@H]1O[C@H](COS(=O)(=O)O)[C@@H](O[C@@H]2O[C@@H](C(=O)O)[C@@H](O[C@H]3O[C@H](COS(=O)(=O)O)[C@@H](O[C@@H]4O[C@H](C(=O)O)[C@@H](O[C@H]5O[C@H](COS(=O)(=O)O)[C@@H](O)[C@H](O)[C@H]5NS(=O)(=O)O)[C@H](O)[C@H]4O)[C@H](OS(=O)(=O)O)[C@H]3NS(=O)(=O)O)[C@H](O)[C@H]2OS(=O)(=O)O)[C@H](O)[C@H]1NS(=O)(=O)O; value = -3%
Structure (SMILES) = CN(CCCCCCCCCCN(C)C(=O)Oc1cccc([N+](C)(C)C)c1)C(=O)Oc1cccc([N+](C)(C)C)c1; value = -14%
Structure (SMILES) = O=[N+]([O-])O[C@@H]1CO[C@H]2[C@@H]1OC[C@@H]2O; value = 5%
Structure (SMILES) = CC1(C)S[C@@H]2[C@H](NC(=O)C(c3ccccc3)S(=O)(=O)O)C(=O)N2[C@H]1C(=O)O (stereo partly drawn); value = -3%
Structure (SMILES) = CCCCC1C(=O)N(c2ccccc2)N(c2ccccc2)C1=O; value = -6%
Structure (SMILES) = COC(=O)c1cccc(CCN(C)CCC[C@@](C#N)(c2ccc(OC)c(OC)c2)C(C)C)c1; value = 3%
Structure (SMILES) = C/C=C(/C)C(=O)Oc1c(OC)c(OC)cc2c1-c1c(cc(OC)c(OC)c1OC)C[C@](C)(O)[C@@H](C)C2; value = -10%
Structure (SMILES) = CC(=O)c1ccc2c(c1)N(CCCN1CCC(CCO)CC1)c1ccccc1S2; value = -7%
Structure (SMILES) = C[C@@H](O[C@H]1OCCN(Cc2n[nH]c(=O)[nH]2)[C@H]1c1ccc(F)cc1)c1cc(C(F)(F)F)cc(C(F)(F)F)c1; value = -2%
Structure (SMILES) = CCCCC(=O)O[C@H](CC(=O)[O-])C[N+](C)(C)C; value = -27%
Structure (SMILES) = COc1ccc2c(OC)c3ccoc3nc2c1; value = -5%
Structure (SMILES) = O=C1[C@H](CC[C@H](O)c2ccc(F)cc2)[C@@H](c2ccc(O)cc2)N1c1ccc(F)cc1; value = -10%
Structure (SMILES) = CC(=O)N[C@@H](CCC(N)=O)C(=O)O; value = 0%
Structure (SMILES) = CCCCC/C=C/C=C/C(=O)NCC(C)C; value = -11%
Structure (SMILES) = O=Cc1ccc(CO)o1; value = -12%
Structure (SMILES) = CC(C)C[C@H](N)C(=O)O; value = 26%

Set 2 — tested at: 0.1 µM; endpoint: remaining binding
SMILES: Cn1cc(Cl)c2c(Oc3c(F)cc(Nc4cc(Cl)nc(N)n4)cc3F)ccnc21
target = LIM domain kinase 2 (LIMK2, Homo sapiens, UniProt P53671); read-out = cell-free assay; technique = competition with immobilised ligand; value = 100%
target = Protein-tyrosine kinase 6 (PTK6, Homo sapiens, UniProt Q13882); read-out = cell-free assay; technique = competition with immobilised ligand; value = 86%
target = Receptor-type tyrosine-protein kinase FLT3 (FLT3, Homo sapiens, UniProt P36888, D835H); read-out = cell-free assay; technique = competition with immobilised ligand; value = 78%
target = Phosphatidylinositol 4,5-bisphosphate 3-kinase catalytic subunit alpha isoform (PIK3CA, Homo sapiens, UniProt P42336, H1047Y); read-out = cell-free assay; technique = competition with immobilised ligand; value = 62%
target = Activin receptor type-2A (ACVR2A, Homo sapiens, UniProt P27037); read-out = cell-free assay; technique = competition with immobilised ligand; value = 87%
target = Misshapen-like kinase 1 (MINK1, Homo sapiens, UniProt Q8N4C8); read-out = cell-free assay; technique = competition with immobilised ligand; value = 93%
target = Vascular endothelial growth factor receptor 1 (FLT1, Homo sapiens, UniProt P17948); read-out = cell-free assay; technique = competition with immobilised ligand; value = 100%
target = Ephrin type-A receptor 3 (EPHA3, Homo sapiens, UniProt P29320); read-out = cell-free assay; technique = competition with immobilised ligand; value = 83%
target = Vascular endothelial growth factor receptor 2 (KDR, Homo sapiens, UniProt P35968); read-out = cell-free assay; technique = competition with immobilised ligand; value = 93%
target = Serine/threonine-protein kinase SIK3 (SIK3, Homo sapiens, UniProt Q9Y2K2); read-out = cell-free assay; technique = competition with immobilised ligand; value = 100%
target = Tyrosine-protein kinase ABL1, non-phosphorylated (ABL1, Homo sapiens, UniProt P00519); read-out = cell-free assay; technique = competition with immobilised ligand; value = 89%
target = Cyclin-dependent kinase 4, with cyclin D1 (CDK4, Homo sapiens, UniProt P11802); read-out = cell-free assay; technique = competition with immobilised ligand; value = 100%
target = Mitogen-activated protein kinase kinase kinase 14 (MAP3K14, Homo sapiens, UniProt Q99558); read-out = cell-free assay; technique = competition with immobilised ligand; value = 100%
target = Cyclin-dependent kinase 13 (CDK13, Homo sapiens, UniProt Q14004); read-out = cell-free assay; technique = competition with immobilised ligand; value = 77%
target = Tyrosine-protein kinase ABL1, non-phosphorylated (ABL1, Homo sapiens, UniProt P00519, H396P); read-out = cell-free assay; technique = competition with immobilised ligand; value = 84%
target = Ribosomal protein S6 kinase alpha-6, N-terminal kinase domain (RPS6KA6, Homo sapiens, UniProt Q9UK32); read-out = cell-free assay; technique = competition with immobilised ligand; value = 72%
target = AP2-associated protein kinase 1 (AAK1, Homo sapiens, UniProt Q2M2I8); read-out = binding; value = 100%
target = Mitogen-activated protein kinase kinase kinase 1 (MAP3K1, Homo sapiens, UniProt Q13233); read-out = cell-free assay; technique = competition with immobilised ligand; value = 76%
target = Serine/threonine-protein kinase VRK2 (VRK2, Homo sapiens, UniProt Q86Y07); read-out = cell-free assay; technique = competition with immobilised ligand; value = 81%
target = Serine/threonine-protein kinase Nek11 (NEK11, Homo sapiens, UniProt Q8NG66); read-out = cell-free assay; technique = competition with immobilised ligand; value = 85%
target = ALK tyrosine kinase receptor (ALK, Homo sapiens, UniProt Q9UM73, C1156Y); read-out = cell-free assay; technique = competition with immobilised ligand; value = 100%
target = Tyrosine-protein kinase Lck (LCK, Homo sapiens, UniProt P06239); read-out = cell-free assay; technique = competition with immobilised ligand; value = 100%
target = Dual specificity protein kinase CLK1 (CLK1, Homo sapiens, UniProt P49759); read-out = cell-free assay; technique = competition with immobilised ligand; value = 96%
target = Cyclin-dependent kinase 11B (CDK11B, Homo sapiens, UniProt P21127); read-out = cell-free assay; technique = competition with immobilised ligand; value = 100%
target = Receptor-interacting serine/threonine-protein kinase 2 (RIPK2, Homo sapiens, UniProt O43353); read-out = cell-free assay; technique = competition with immobilised ligand; value = 83%

Set 3 — Compound: CC(=O)c1ccc(N2CCOCC2)cc1O; read-out: enzyme activity; mode: inhibitor; tested at: 0.5 µM; reference: control; endpoint: remaining activity
target = Serine/threonine-protein kinase N2 (PKN2, Homo sapiens, UniProt Q16513); value = 94.8%
target = Calcium/calmodulin-dependent protein kinase type 1G (CAMK1G, Homo sapiens, UniProt Q96NX5); value = 101%
target = Proto-oncogene tyrosine-protein kinase ROS (ROS1, Homo sapiens, UniProt P08922); value = 102%
target = Calcium/calmodulin-dependent protein kinase type 1D (CAMK1D, Homo sapiens, UniProt Q8IU85); value = 96.9%
target = Homeodomain-interacting protein kinase 3 (HIPK3, Homo sapiens, UniProt Q9H422); value = 101%
target = Aurora kinase A (AURKA, Homo sapiens, UniProt O14965); value = 132%
target = Serine/threonine-protein kinase Nek9 (NEK9, Homo sapiens, UniProt Q8TD19); value = 93.9%
target = Proto-oncogene tyrosine-protein kinase receptor Ret (RET, Homo sapiens, UniProt P07949); value = 103%
target = Dual specificity tyrosine-phosphorylation-regulated kinase 4 (DYRK4, Homo sapiens, UniProt Q9NR20); value = 95.6%
target = Mitogen-activated protein kinase 10 (MAPK10, Homo sapiens, UniProt P53779); value = 78.4%
target = Protein-tyrosine kinase 2-beta (PTK2B, Homo sapiens, UniProt Q14289); value = 102%
target = Mitogen-activated protein kinase kinase kinase 8 (MAP3K8, Homo sapiens, UniProt P41279); value = 99.4%
target = Myotonin-protein kinase (DMPK, Homo sapiens, UniProt Q09013); value = 105%
target = STE20-like serine/threonine-protein kinase (SLK, Homo sapiens, UniProt Q9H2G2); value = 105%
target = Epidermal growth factor receptor (EGFR, Homo sapiens, UniProt P00533); value = 97.4%
target = G protein-coupled receptor kinase 5 (GRK5, Homo sapiens, UniProt P34947); value = 108%
target = Cyclin-dependent kinase 2, with cyclin A (CDK2, Homo sapiens, UniProt P24941); value = 99.3%
target = NT-3 growth factor receptor (NTRK3, Homo sapiens, UniProt Q16288); value = 101%
target = Cyclin-dependent kinase 7 (CDK7, Homo sapiens, UniProt P50613); value = 105%
target = Serine/threonine-protein kinase BRSK1 (BRSK1, Homo sapiens, UniProt Q8TDC3); value = 97.6%
target = Mitogen-activated protein kinase kinase kinase 2 (MAP3K2, Homo sapiens, UniProt Q9Y2U5); value = 109%
target = Rho-associated protein kinase 2 (ROCK2, Homo sapiens, UniProt O75116); value = 94.7%
target = Serine/threonine-protein kinase D1 (PRKD1, Homo sapiens, UniProt Q15139); value = 102%
target = Casein kinase II subunit alpha' (CSNK2A2, Homo sapiens, UniProt P19784); value = 98.8%

Set 4 — mode: agonist; tested at: 10 µM; reference: untreated; endpoint: fold over basal
Compound: N=C(N)NC(=O)c1cnn(-c2cccc3ncccc23)c1C1CC1
target = 5-hydroxytryptamine receptor 2C (HTR2C, Homo sapiens, UniProt P28335); read-out = β-arrestin recruitment; technique = PRESTO-Tango; value = 0.8
target = Prostacyclin receptor (PTGIR, Homo sapiens, UniProt P43119); read-out = β-arrestin recruitment; technique = PRESTO-Tango; value = 0.96
target = Alpha-1A adrenergic receptor (ADRA1A, Homo sapiens, UniProt P35348); read-out = β-arrestin recruitment; technique = PRESTO-Tango; value = 1.6
target = Relaxin receptor 1 (RXFP1, Homo sapiens, UniProt Q9HBX9); read-out = β-arrestin recruitment; technique = PRESTO-Tango; value = 1.41
target = Melanin-concentrating hormone receptor 1 (MCHR1, Homo sapiens, UniProt Q99705); read-out = β-arrestin recruitment; technique = PRESTO-Tango; value = 1.23
target = Nociceptin receptor (OPRL1, Homo sapiens, UniProt P41146); technique = PRESTO-Tango arrestin recruitment; value = 15.2
target = Corticotropin-releasing factor receptor 2 (CRHR2, Homo sapiens, UniProt Q13324); read-out = β-arrestin recruitment; technique = PRESTO-Tango; value = 1.35
target = Neuropeptide Y receptor type 5 (NPY5R, Homo sapiens, UniProt Q15761); technique = PRESTO-Tango arrestin recruitment; value = 1.23
target = Extracellular calcium-sensing receptor (CASR, Homo sapiens, UniProt P41180); read-out = β-arrestin recruitment; technique = PRESTO-Tango; value = 1.27
target = Probable G-protein coupled receptor 150 (GPR150, Homo sapiens, UniProt Q8NGU9); read-out = β-arrestin recruitment; technique = PRESTO-Tango; value = 1.37
target = 5-hydroxytryptamine receptor 4 (HTR4, Homo sapiens, UniProt Q13639); read-out = β-arrestin recruitment; technique = PRESTO-Tango; value = 1.5
target = Thyrotropin-releasing hormone receptor (TRHR, Homo sapiens, UniProt P34981); read-out = β-arrestin recruitment; technique = PRESTO-Tango; value = 1.04 fold
target = C-C chemokine receptor type 5 (CCR5, Homo sapiens, UniProt P51681); read-out = β-arrestin recruitment; technique = PRESTO-Tango; value = 1.15
target = Metabotropic glycine receptor (GPR158, Homo sapiens, UniProt Q5T848); read-out = β-arrestin recruitment; technique = PRESTO-Tango; value = 1.08

Some of these lines once more (set 3):
target = G protein-coupled receptor kinase 5 (GRK5, Homo sapiens, UniProt P34947); value = 108%
target = Cyclin-dependent kinase 2, with cyclin A (CDK2, Homo sapiens, UniProt P24941); value = 99.3%
target = NT-3 growth factor receptor (NTRK3, Homo sapiens, UniProt Q16288); value = 101%
target = Cyclin-dependent kinase 7 (CDK7, Homo sapiens, UniProt P50613); value = 105%
target = Serine/threonine-protein kinase BRSK1 (BRSK1, Homo sapiens, UniProt Q8TDC3); value = 97.6%
target = Mitogen-activated protein kinase kinase kinase 2 (MAP3K2, Homo sapiens, UniProt Q9Y2U5); value = 109%
target = Rho-associated protein kinase 2 (ROCK2, Homo sapiens, UniProt O75116); value = 94.7%
target = Serine/threonine-protein kinase D1 (PRKD1, Homo sapiens, UniProt Q15139); value = 102%
target = Casein kinase II subunit alpha' (CSNK2A2, Homo sapiens, UniProt P19784); value = 98.8%
